Assay results gathered from unrelated publications.
Compare with care: the assays were run in different laboratories. Values joined by “and” are separate records of one study, mostly repeats; a detail may differ. ± gives the spread as reported.
ADORA1: Adenosine receptor A1 (ADORA1, Homo sapiens, UniProt P30542)
ALB: Albumin (ALB, Homo sapiens, UniProt P02768)
T1: SNCA 5' UTR IRE RNA, 2-aminopurine at bulged A (Homo sapiens); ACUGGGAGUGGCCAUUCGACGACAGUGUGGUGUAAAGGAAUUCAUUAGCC

SMILES | target | assay | system | setting | how to read | measurement | result
CC1(C)CCN(Cc2ccc(C(=O)NC[C@]3(O)CCCN(c4cc(NCc5ccccc5)ncn4)C3)c(O)c2)CC1 | Tyrosine-protein kinase JAK1 (JAK1, Homo sapiens, UniProt P23458) | kinase activity, radiometric | – | 10 µM, with: 10 µM ATP | – | remaining activity | 102%
OC[C@H]1O[C@@H](n2cnc3c(Nc4cccc(Br)c4)ncnc32)[C@H](O)[C@@H]1O | Adenosine receptor A3 (ADORA3, Homo sapiens, UniProt P0DMS8) | kinetic radioligand binding | – | 10 °C, no GTP, with: [3H]PSB-11 | – | kon | 88000 ± 14000 M⁻¹ s⁻¹
CN1CCN(CC(=O)N2N=C3/C(=C/c4ccccc4)CCCC3C2c2ccccc2)CC1 (mixture of isomers) | Polyunsaturated fatty acid lipoxygenase ALOX15 (ALOX15, Homo sapiens, UniProt P16050) | enzyme activity, activator | – | 10 µM, with: docosahexaenoic acid 100 µM | reference: no activator | initial rate increase | 25%
O=C(CSc1nnc(-c2ccncc2)n1-c1ccc(Br)cc1)Nc1ccc2cn[nH]c2c1 | T1, SNCA 5' UTR IRE RNA, 2-aminopurine at bulged A (Homo sapiens) | fluorescence titration | – | apparent | – | EC50 | 2.9 µM
O=c1[nH]c2ccccc2n1CCCCCN1CCN(c2ccc(F)cc2)CC1 | 5-hydroxytryptamine receptor 7 (HTR7, Homo sapiens, UniProt P34969) | ERK1/2 phosphorylation, agonist, Western blot | HEK293 expressing human 5-HT7R | 10 µM, 2 to 60 min | reference: control | Emax | 309 ± 34%
CC(C)C(=O)N1CC=C(c2cc3c(Nc4cc5ncsc5cc4F)ncnc3s2)CC1 | Receptor-interacting serine/threonine-protein kinase 1 (RIPK1, Homo sapiens, UniProt Q13546) | enzyme activity | – | 1 µM | reference: untreated | remaining activity | 100 ± 5%
CC(C)(C)CCN1C[C@@H]2[C@@H](CNC(=O)c3cc(Cl)cc(Cl)c3)[C@@H]2C1.Cl | Voltage-dependent L-type calcium channel subunit alpha-1F (Homo sapiens, UniProt O60840) | calcium current, whole-cell patch clamp | HEK-293T cells | 50 nM, holding potential -50 mV, with: β2 and α2δ subunits | – | reversal potential | 60.9 ± 1.31 mV
CCN(CC)C(=O)c1ccc(O)c(OC)c1 | Heat shock protein HSP 90-alpha, N-terminal domain (HSP90AA1, Homo sapiens, UniProt P07900) | binding, ligand-observed NMR titration | – | ligand to protein ratio 272 | – | contrast | 45%
O=C1c2ccc(O)cc2OC2c3cc(-c4coc5cc(O)ccc5c4=O)ccc3OC12c1ccc(O)cc1 (stereo not drawn) | PRXC1A (Armoracia rusticana, UniProt P00433) | oxidation, substrate | – | – | – | Vmax | 15.1 ± 1.2 µmol/min/mg
CCC(C)/C=C/C(C)=C\C=C\C(C)=C\C=O (stereo not drawn) | Rhodopsin (RHO, Homo sapiens, UniProt P08100, P23H) | pharmacological chaperone, immunostaining, nonpermeabilized cells | 661W | 2.5 µM, 16 h | reference: untreated cells | cell surface expression | ~2 fold
CCNC(=O)[C@H]1O[C@@H](n2cnc3c(NCCCCNC(=O)CCCCCNC(=O)COc4ccc(/C=C/C5=[N+]6C(=Cc7ccc(-c8cccs8)n7[B-]6(F)F)C=C5)cc4)ncnc32)[C@H](O)[C@@H]1O | ADORA1 | CRE reporter gene, agonist | CHO-A1 | PTX 100 ng/mL overnight, with: forskolin 3 µM | reference: forskolin alone | maximal Gs response | 1.44 ± 0.03 fold increase
CC1=C(/C=C/C=C\C=C\C(C)=C\C=O)C(C)(C)CCC1 | Rhodopsin (RHO, Homo sapiens, UniProt P08100) | pharmacological chaperone, immunostaining, nonpermeabilized cells | 661W | 2.5 µM, 16 h | reference: untreated cells | cell surface expression | ~2 fold
N=C(N)NCCC[C@H](NC(=O)[C@H](CC(=O)O)NC(=O)[C@@H]1CSCCC(=O)NCC(=O)N[C@@H](Cc2c[nH]cn2)C(=O)N[C@H](Cc2ccccc2)C(=O)N[C@@H](CCCNC(=N)N)C(=O)N[C@@H](Cc2c[nH]c3ccccc23)C(=O)N1)C(=O)N[C@@H](Cc1ccccc1)C(=O)NCC(N)=O | Melanocyte-stimulating hormone receptor (MC1R, Homo sapiens, UniProt Q01726) | cAMP accumulation, agonist | HEK293 expressing MC1R | 10 µM | reference: MT-II | activation | 10%
Nc1ncnc2c1ncn2[C@@H]1O[C@H](CO)[C@@H](O[C@H]2O[C@H](CO)[C@@H](OP(=O)(O)O)[C@H](OP(=O)(O)O)[C@H]2O)[C@H]1O | Inositol 1,4,5-trisphosphate-gated calcium channel ITPR1, N-terminal region (Itpr1, Rattus norvegicus, UniProt P29994, del318-332/R568Q) | [3H]IP3 competition binding | N-terminal fragment R568Q | Tris-EDTA medium | – | Hill coefficient | 0.7 ± 0.1
CCC(=C(c1ccc(O)cc1)c1ccc(OCCN(C)CCOCCOCCOCCOCCOC)cc1)c1ccccc1 (mixture of isomers) | Estrogen receptor beta (ESR2, Homo sapiens, UniProt Q92731) | radioligand competition binding | – | concentration not given, Z-Z/Z isomer form, with: [3H]estradiol tracer | reference: estradiol | relative binding affinity | 34.2 ± 1.7%
Cc1cnc2c(c1)NC(=O)c1cccnc1N2C1CC1 | ALB | ITC | – | concentration not given, 298 K | – | binding enthalpy | -1.94 kcal/mol
N=C(N)NCCC[C@H](NC(=O)[C@H](Cc1ccccc1)NC(=O)[C@@H](N)CO)C(=O)N[C@@H](CC(N)=O)C(=O)NCC(N)=O | Neuropeptide S receptor (Mus musculus, UniProt Q8BZP8) | calcium mobilization, agonist | HEK293T | unit not given | reference: maximal assay window | maximal response | 0.64
C=C1CN(S(=O)(=O)c2ccc(C)cc2)CCCN(Cc2ccccc2)CCCN(S(=O)(=O)c2ccc(C)cc2)C1 | Sortilin (Homo sapiens, UniProt Q99523) | SILAC mass spectrometry | SUP-T1, crude membrane fraction | 10 µM, 17 h, forward labelling | reference: DMSO over compound | protein level ratio | 2.07

SMILES | target | assay | system | setting | how to read | measurement | result
CC(C)C[C@H](NC(=O)[C@H](C)NC(=O)[C@H](CO)NC(=O)[C@@H]1CCCN1C(=O)[C@@H]1CCCN1C(=O)[C@H](CCC(N)=O)NC(=O)[C@H](CC(C)C)NC(=O)[C@@H](N)[C@@H](C)O)C(=O)N[C@@H](CCCNC(=N)N)C(=O)N[C@@H](CCCNC(=N)N)C(=O)N[C@@H](CCCNC(=N)N)C(=O)N[C@@H](Cc1c[nH]cn1)C(=O)N[C@@H](Cc1ccc(O)cc1)C(=O)N[C@@H](Cc1c[nH]cn1)C(=O)N[C@@H](Cc1c[nH]cn1)C(=O)N[C@@H](C)C(=O)N[C@@H](CC(C)C)C(=O)N1CCC[C@H]1C(=O)N1CCC[C@H]1C(=O)N[C@@H](CO)C(=O)N[C@@H](CCCNC(=N)N)C(=O)O | C3a anaphylatoxin chemotactic receptor (C3AR1, Homo sapiens, UniProt Q16581) | β-arrestin recruitment, agonist, BRET | – | – | – | Emax | 52%
CC(CCC(=O)NC(CCC(=O)Nc1cccc(N)n1)C(=O)O)C1CCC2C3C(O)CC4CC(O)CCC4(C)C3CCC12C (stereo not drawn) | Ileal sodium/bile acid cotransporter (SLC10A2, Homo sapiens, UniProt Q12908) | transport efficiency, substrate, LC-MS/MS | ASBT-MDCK | – | – | normalized Jmax/Kt | 0.324 µM⁻¹
CCCC[C@H](NC(C)=O)C(=O)N[C@@H](CO)C(=O)N[C@H](C(=O)N1CCC[C@H]1C(=O)N[C@]1(C)CCCCCCC=CCCC[C@@](C)(C(=O)N[C@@H](Cc2ccccc2)C(=O)N[C@@H](CCCCN)C(=O)N[C@@H](CCCNC(=N)N)C(=O)N[C@@H](CC(C)C)C(=O)N[C@@H](CCC(N)=O)C(N)=O)NC(=O)[C@H](CCCNC(=N)N)NC(=O)[C@H](CCCC)NC(=O)[C@H](CC(C)C)NC(=O)[C@H](CCCNC(=N)N)NC(=O)[C@H](CCCNC(=N)N)NC(=O)[C@H](CCCNC(=N)N)NC1=O)[C@@H](C)O | Ubiquitin carboxyl-terminal hydrolase 7 (USP7, Homo sapiens, UniProt Q93009) | – | – | 30 µM, with: USP7 1 µM | – | p53 deubiquitination | no effect
Cn1c(-n2nccn2)nc2c(N)nc(C(=O)Nc3ccccc3)nc21 | Adenosine receptor A2a (ADORA2A, Homo sapiens, UniProt P29274) | radioligand displacement | HEK293 cell membranes | 25 °C, with: [3H]ZM241385 | – | binding free energy | -10.4 ± 0.01 kcal/mol
COc1ccc(-c2nc(CSc3nc(N)c(C#N)c(-c4ccc5c(c4)OCO5)c3C#N)cs2)cc1 | ADORA1 | cAMP, agonist | – | – | – | Emax | 104%
Cc1cc(C)c2sc(NC(=O)C3CCN(S(=O)(=O)c4ccc(F)cc4)CC3)nc2c1 | N-acyl-phosphatidylethanolamine-hydrolyzing phospholipase D (Homo sapiens, UniProt Q6IQ20) | activator | HepG2 | with: flame-NAPE substrate | reference: vehicle | Emax | 1.6 fold
N=C(N)NCCC[C@H](NC(=O)[C@H](CC(=O)O)NC(=O)[C@@H]1CSCC(=O)NCC(=O)N[C@@H](Cc2c[nH]cn2)C(=O)N[C@H](Cc2ccccc2)C(=O)N[C@@H](CCCNC(=N)N)C(=O)N[C@H](Cc2c[nH]c3ccccc23)C(=O)N1)C(=O)N[C@@H](Cc1ccccc1)C(=O)NCC(N)=O | Melanocortin receptor 3 (MC3R, Homo sapiens, UniProt P41968) | cAMP accumulation | HEK293 expressing MC3R | concentration not given | – | functional activity | inactive
Cc1sc2c(c1C)C(c1ccc(Cl)cc1)=N[C@@H](CC(=O)NCCCCCCCCC(=O)N1CCN(C(=O)c3cc(Cc4n[nH]c(=O)c5ccccc45)ccc3F)CC1)c1nnc(C)n1-2 | BRD4/PARP1 (Homo sapiens, UniProt O60885+P09874) | PARP1-BRD4 ternary complex, NanoBRET | HEK293T | 2 h | – | concentration of peak signal | 100 nM
CCCn1c(=O)c2[nH]c(-c3ccc(OCC(=O)NCCNC(=O)CCCCCCCNS(=O)(=O)c4cccc5c(N(C)C)cccc45)cc3)nc2n(CCC)c1=O | ADORA1 | CRE reporter gene, inverse agonist | CHO-A1 | concentration not given, with: forskolin | reference: forskolin alone | inverse agonist response | 1.2 ± 0.03 fold increase
C=CCCCCCCO[C@@H]1O[C@H](CO)[C@@H](O[C@@H]2O[C@H](CO)[C@H](O)[C@H](O)[C@H]2O[C@@H]2O[C@@H](C)[C@@H](O)[C@@H](O)[C@@H]2O)[C@H](O)[C@H]1NC(C)=O | Histo-blood group ABO system transferase (ABO, Homo sapiens, UniProt P16442, G235S/G268A/L266M/R176G) | methyl-TROSY NMR titration lineshape | – | two-state binding model, with: acceptor binding, saturating UDP | – | koff | 1.7 ± 0.5 s⁻¹
Cc1ccc(C(C)C)cc1.[C-]#[O+].[C-]#[O+].[C-]#[O+].[Cl-].[Cl-].[Cl-].[Re+].[Ru+2].c1cnc(-c2ncccn2)nc1 | ALB | tryptophan fluorescence quenching | – | – | – | Stern-Volmer constant | 55000 M⁻¹
O=C1C(=O)c2cccnc2-c2ncccc21 | Taste receptor type 2 member 5 (TAS2R5, Homo sapiens, UniProt Q9NYW4) | intracellular calcium, agonist | D9 cells expressing TAS2R5 | – | – | log(Emax/EC50) | 8.2
C=CCC(=N)NCCC[C@H](N)C(=O)O | Nitric oxide synthase 1 (Mus musculus, UniProt Q9Z0J4) | – | adult mouse hippocampal slices | 0.1 µM, with: BAY 60-7550 1 µM | – | NMDA-evoked cGMP accumulation | no effect
Nc1cccc(S(=O)(=O)N2CCCN(S(=O)(=O)c3ccc4c(c3)OCCO4)CC2)c1 | Pyruvate kinase PKM, isoform M2 (Pkm, Mus musculus, UniProt P52480) | – | A549 PKM2 knockdown, cell lysate | 40 µM, 3 h | – | pyruvate kinase activity increase | 248 ± 21%
CCCNCC(=O)O | ALB | UV-vis absorption titration | – | pH 7.4, room temperature | – | apparent binding constant | 1.4 mM⁻¹
O=C(CSC(=S)N1CCCCCC1)Nc1cccc2c1C(=O)c1ccccc1C2=O | Tyrosine-protein kinase Fgr (FGR, Homo sapiens, UniProt P09769) | RTK phosphorylation array | A549 | concentration not given | reference: control | phosphorylation decrease | 2.8 fold
CC[C@H](C)[C@@H]1NC(=O)[C@H](Cc2ccc(OC)cc2)NC(=O)CC2(CCCCC2)SSC[C@@H](C(=O)N2CCC[C@H]2C(=O)N[C@@H](CCCN)C(=O)N[C@@H](Cc2ccc(O)c(I)c2)C(N)=O)NC(=O)[C@H](CC(N)=O)NC(=O)[C@H]([C@@H](C)O)NC1=O | oxytocin receptor (Mesocricetus auratus, UniProt A0A1U7Q6Y0) | saturation binding | hamster brain sections | – | – | Bmax | 2960 DPM/0.04 mg
Cc1cc(N2CC[C@@](C#N)(C3CC3)C2=O)cc(NC(=O)Cc2ccccc2)n1 | Bifunctional glutamate/proline--tRNA ligase, prolyl-tRNA synthetase domain (EPRS1, Homo sapiens, UniProt P07814) | thermal shift | – | – | – | melting temperature | 64.1 °C and 70.1 °C and 70.6 °C

A few entries again:
SMILES | target | assay | system | setting | how to read | measurement | result
CC(C)(C)CCN1C[C@@H]2[C@@H](CNC(=O)c3cc(Cl)cc(Cl)c3)[C@@H]2C1.Cl | Voltage-dependent L-type calcium channel subunit alpha-1F (Homo sapiens, UniProt O60840) | calcium current, whole-cell patch clamp | HEK-293T cells | 50 nM, holding potential -50 mV, with: β2 and α2δ subunits | – | reversal potential | 60.9 ± 1.31 mV
CCC(C)/C=C/C(C)=C\C=C\C(C)=C\C=O (stereo not drawn) | Rhodopsin (RHO, Homo sapiens, UniProt P08100, P23H) | pharmacological chaperone, immunostaining, nonpermeabilized cells | 661W | 2.5 µM, 16 h | reference: untreated cells | cell surface expression | ~2 fold
Cn1c(-n2nccn2)nc2c(N)nc(C(=O)Nc3ccccc3)nc21 | Adenosine receptor A2a (ADORA2A, Homo sapiens, UniProt P29274) | radioligand displacement | HEK293 cell membranes | 25 °C, with: [3H]ZM241385 | – | binding free energy | -10.4 ± 0.01 kcal/mol
